Published values gathered from unrelated publications.
Parts stem from different laboratories: compare values within a part only. “And” joins repeats or separate records; there may be more than shown.
Chain of UniProt P07949 (whole entry, unmodified, looked up): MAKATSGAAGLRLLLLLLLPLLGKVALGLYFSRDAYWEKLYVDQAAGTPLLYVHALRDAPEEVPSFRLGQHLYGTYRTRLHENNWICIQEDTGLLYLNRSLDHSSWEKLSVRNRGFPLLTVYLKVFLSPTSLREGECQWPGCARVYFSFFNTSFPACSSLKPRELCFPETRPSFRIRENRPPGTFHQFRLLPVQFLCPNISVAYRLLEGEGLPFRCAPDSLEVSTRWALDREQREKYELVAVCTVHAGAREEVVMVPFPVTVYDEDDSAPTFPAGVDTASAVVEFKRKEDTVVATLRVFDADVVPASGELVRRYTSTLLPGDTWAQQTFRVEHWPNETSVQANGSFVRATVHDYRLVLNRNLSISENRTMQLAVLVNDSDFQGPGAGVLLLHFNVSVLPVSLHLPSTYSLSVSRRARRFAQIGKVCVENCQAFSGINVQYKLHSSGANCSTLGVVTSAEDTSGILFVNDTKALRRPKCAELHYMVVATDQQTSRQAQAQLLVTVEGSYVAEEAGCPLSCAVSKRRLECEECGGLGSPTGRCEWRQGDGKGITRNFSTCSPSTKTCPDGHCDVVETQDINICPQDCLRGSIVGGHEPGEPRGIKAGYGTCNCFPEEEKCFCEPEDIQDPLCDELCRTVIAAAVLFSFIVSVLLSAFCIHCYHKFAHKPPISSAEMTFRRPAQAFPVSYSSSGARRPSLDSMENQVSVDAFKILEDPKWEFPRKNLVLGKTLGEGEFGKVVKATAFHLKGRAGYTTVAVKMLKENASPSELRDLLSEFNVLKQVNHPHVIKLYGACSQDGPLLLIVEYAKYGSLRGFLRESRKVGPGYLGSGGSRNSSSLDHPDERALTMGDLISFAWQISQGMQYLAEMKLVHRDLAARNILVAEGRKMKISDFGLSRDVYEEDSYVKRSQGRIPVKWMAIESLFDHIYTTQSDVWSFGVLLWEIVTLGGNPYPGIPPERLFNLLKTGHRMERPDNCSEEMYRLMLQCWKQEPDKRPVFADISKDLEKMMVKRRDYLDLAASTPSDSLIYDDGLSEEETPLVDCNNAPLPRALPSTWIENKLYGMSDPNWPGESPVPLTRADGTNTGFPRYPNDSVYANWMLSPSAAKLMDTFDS
Chain of UniProt Q96SB4 (whole entry, looked up): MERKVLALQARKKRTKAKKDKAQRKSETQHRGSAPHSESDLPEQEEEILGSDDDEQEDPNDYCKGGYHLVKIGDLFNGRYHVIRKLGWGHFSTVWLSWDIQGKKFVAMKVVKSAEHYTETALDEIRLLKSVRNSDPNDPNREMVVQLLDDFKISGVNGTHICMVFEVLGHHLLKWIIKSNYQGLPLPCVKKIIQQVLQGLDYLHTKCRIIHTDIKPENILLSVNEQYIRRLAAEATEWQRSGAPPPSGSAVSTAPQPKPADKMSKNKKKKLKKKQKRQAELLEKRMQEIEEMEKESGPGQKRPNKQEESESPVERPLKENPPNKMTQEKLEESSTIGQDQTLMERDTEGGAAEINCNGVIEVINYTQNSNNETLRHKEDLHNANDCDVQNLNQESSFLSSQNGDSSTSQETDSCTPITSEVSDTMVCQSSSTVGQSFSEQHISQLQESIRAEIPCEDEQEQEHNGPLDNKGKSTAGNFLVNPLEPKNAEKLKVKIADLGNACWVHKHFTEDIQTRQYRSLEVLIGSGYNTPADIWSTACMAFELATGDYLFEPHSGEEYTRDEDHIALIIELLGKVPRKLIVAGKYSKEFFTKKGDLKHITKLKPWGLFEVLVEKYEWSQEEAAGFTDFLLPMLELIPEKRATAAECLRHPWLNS
Chain of UniProt P17948 (whole entry, looked up): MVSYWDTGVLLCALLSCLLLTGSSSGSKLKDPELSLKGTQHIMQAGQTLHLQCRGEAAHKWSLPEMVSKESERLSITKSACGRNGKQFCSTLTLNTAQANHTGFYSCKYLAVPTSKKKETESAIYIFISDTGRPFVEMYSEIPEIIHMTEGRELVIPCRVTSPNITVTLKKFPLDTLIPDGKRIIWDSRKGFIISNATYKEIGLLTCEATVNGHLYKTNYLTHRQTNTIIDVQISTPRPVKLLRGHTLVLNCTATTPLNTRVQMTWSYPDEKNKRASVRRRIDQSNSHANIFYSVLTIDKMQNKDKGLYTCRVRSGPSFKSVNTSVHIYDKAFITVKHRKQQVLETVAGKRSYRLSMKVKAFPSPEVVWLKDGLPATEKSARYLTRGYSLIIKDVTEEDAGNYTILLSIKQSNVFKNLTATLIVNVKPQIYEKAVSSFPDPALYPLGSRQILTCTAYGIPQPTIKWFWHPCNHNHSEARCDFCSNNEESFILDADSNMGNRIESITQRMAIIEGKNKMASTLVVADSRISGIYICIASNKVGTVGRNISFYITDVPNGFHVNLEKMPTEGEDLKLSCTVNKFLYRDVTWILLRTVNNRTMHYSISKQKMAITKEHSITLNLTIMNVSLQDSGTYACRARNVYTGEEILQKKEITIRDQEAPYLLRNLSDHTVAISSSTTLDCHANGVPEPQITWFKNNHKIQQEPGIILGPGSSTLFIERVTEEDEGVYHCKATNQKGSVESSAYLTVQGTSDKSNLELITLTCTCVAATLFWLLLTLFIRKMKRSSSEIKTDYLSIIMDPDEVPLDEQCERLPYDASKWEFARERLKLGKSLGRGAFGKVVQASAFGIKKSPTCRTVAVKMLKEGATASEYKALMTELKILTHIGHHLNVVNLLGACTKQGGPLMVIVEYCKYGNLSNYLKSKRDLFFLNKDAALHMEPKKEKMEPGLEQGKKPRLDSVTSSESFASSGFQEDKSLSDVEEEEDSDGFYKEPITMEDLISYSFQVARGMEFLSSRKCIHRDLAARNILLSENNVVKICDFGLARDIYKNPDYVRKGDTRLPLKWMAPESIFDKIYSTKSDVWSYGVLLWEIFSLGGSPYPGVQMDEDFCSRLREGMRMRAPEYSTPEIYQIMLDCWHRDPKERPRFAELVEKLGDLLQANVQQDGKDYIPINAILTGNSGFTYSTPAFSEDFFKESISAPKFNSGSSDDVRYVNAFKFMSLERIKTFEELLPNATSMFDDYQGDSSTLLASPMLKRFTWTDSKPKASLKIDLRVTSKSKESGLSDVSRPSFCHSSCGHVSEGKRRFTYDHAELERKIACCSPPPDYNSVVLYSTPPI
Chain of UniProt Q16832 (whole entry, looked up): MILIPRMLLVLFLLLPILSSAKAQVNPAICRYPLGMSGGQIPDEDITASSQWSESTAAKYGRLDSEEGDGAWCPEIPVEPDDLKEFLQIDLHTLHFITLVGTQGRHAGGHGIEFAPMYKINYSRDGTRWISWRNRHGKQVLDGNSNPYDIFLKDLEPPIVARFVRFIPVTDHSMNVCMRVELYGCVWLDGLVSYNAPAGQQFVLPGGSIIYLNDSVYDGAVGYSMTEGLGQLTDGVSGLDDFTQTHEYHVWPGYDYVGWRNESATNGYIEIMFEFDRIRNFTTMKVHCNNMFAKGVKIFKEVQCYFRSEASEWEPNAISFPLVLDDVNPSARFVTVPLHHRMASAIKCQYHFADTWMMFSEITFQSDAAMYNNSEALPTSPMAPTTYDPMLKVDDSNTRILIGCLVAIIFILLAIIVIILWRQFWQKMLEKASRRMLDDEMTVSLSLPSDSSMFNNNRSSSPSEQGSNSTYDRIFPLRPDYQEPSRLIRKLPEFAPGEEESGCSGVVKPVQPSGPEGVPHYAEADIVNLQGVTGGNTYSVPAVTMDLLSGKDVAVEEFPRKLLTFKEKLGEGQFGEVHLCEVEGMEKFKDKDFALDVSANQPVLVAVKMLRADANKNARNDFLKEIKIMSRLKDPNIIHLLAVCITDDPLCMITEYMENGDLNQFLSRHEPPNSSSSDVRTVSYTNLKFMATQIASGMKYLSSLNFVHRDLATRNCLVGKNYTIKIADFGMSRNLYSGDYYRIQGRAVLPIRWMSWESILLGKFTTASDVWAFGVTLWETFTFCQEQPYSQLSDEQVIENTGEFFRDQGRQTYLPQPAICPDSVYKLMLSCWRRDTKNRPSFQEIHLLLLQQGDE
Chain of UniProt O14730 (whole entry, looked up): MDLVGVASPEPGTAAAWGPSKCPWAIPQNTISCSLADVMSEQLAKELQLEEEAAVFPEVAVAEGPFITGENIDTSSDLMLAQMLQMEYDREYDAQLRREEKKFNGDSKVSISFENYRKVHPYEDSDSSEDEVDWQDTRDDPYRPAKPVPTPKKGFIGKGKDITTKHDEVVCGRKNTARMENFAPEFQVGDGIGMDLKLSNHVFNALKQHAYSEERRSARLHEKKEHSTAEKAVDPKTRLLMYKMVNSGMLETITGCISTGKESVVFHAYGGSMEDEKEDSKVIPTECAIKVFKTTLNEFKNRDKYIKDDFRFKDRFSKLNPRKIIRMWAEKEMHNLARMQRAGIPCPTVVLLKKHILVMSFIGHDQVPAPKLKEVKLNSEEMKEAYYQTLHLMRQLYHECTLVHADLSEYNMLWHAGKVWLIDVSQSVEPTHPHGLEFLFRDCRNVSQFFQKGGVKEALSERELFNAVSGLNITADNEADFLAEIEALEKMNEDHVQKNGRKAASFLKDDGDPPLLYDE

Series 1 — technique: Incucyte 3D growth; concentration: 30 µM; reading: higher = more growth
SMILES: CC(C)(C(=O)O)[C@H](NC(=O)Cc1cccc(I)c1)c1ccc2oc(=O)[nH]c2c1
cell line | time | spheroid area
MEL-JUSO | 432.52 h | 3.21e+07 a.u. and 5.08e+07 a.u. and 2.96e+07 a.u. and 7.29e+07 a.u. and 3.25e+07 a.u. and 2.99e+07 a.u.
IPC-298 | 270 h | 3.3e+07 a.u. and 4.57e+07 a.u. and 2.61e+07 a.u. and 3.54e+07 a.u. and 2.8e+07 a.u. and 4.1e+07 a.u.
A375 | 36.52 h | 1.38e+07 a.u. and 1.76e+07 a.u. and 1.91e+07 a.u. and 2.27e+07 a.u. and 1.88e+07 a.u. and 1.36e+07 a.u.
NCI-H358 | 180 h | 5.74e+06 a.u. and 9.37e+06 a.u. and 5.93e+06 a.u. and 7.73e+06 a.u. and 6.97e+06 a.u. and 7.59e+06 a.u.
A375 | 522.52 h | 1.5e+08 a.u. and 1.42e+08 a.u. and 1.74e+08 a.u. and 1.47e+08 a.u. and 1.35e+08 a.u. and 1.43e+08 a.u.
NCI-H358 | 66 h | 4.15e+06 a.u. and 3.51e+06 a.u.
IPC-298 | 162 h | 2.28e+07 a.u. and 2.99e+07 a.u. and 2.53e+07 a.u. and 2.69e+07 a.u. and 2.65e+07 a.u. and 3.1e+07 a.u.

Series 2 — host: mouse; sample: microsomes or S9; concentration: 2 µM; time: 0.5 h
Compound | remaining compound [%]
CC(C)c1nc(OCC(=O)O)c(C#N)c2c1COC(C)(C)C2 | 80
Cn1c(=O)c(O)c(C(=O)NCc2cccc(F)c2)c(=O)n1C | 96.6
N=c1c2c(-c3ccccc3)c(-c3ccccc3)n(Cc3ccccc3)c2ncn1CCO | 36.9
CC(=O)Nc1cccc(C2CCN(C(=O)c3cc4cc(-c5ccc(Cl)cc5)c5ccccc5c4s3)CC2)c1 | 75.5
CCCN(C(=O)c1cc(S(=O)(=O)N2CCc3ccccc32)cn1C)c1ccccc1OC | < 1
CCOc1cc(=O)n2c(c1C(=O)NCc1ccccn1)CCCCC2 | 86.8
CCN(CC)CCNc1c2c(nc3cc(-c4cccc(F)c4)nn13)CCCC2 | 2.01

Series 3 — technique: PRP chromatography estimate; sample: 1,9-decadiene/PBS; pH: 7.4
SMILES | logD
CC(C)C[C@@H]1NC(=O)[C@H](CC(C)C)NC(=O)[C@@H](C(C)C)NC(=O)[C@H](C(C)C)NC(=O)[C@H](C(C)C)NC(=O)[C@H](Cc2cscn2)NC(=O)[C@H](C)NC1=O | -1.27
CC(C)C[C@@H]1NC(=O)[C@H](CC(C)C)NC(=O)[C@@H](C(C)C)NC(=O)[C@@H](C)NC(=O)[C@H](C(C)C)NC(=O)[C@H](Cc2cscn2)NC(=O)[C@H](C)NC1=O | -2.83
CC(C)C[C@@H]1NC(=O)[C@H](C)NC(=O)[C@@H](CC(C)C)NC(=O)[C@@H](CC(C)C)NC(=O)[C@H](C)NC(=O)[C@H](CC(C)C)NC(=O)[C@@H](CC(C)C)NC1=O | 0.408
CC(C)C[C@@H]1NC(=O)[C@H](CC(C)C)NC(=O)[C@@H](C(C)C)NC(=O)[C@H](C(C)C)NC(=O)[C@H](C(C)C)NC(=O)[C@H](C)NC(=O)[C@H](C)NC1=O | -1.95
CC(C)C[C@@H]1NC(=O)[C@H](C)NC(=O)[C@H](Cc2cscn2)NC(=O)[C@@H](CC(C)C)NC(=O)[C@H](C(C)C)NC(=O)[C@H](CC(C)C)NC(=O)[C@@H](CC(C)C)NC1=O | -0.332
CC(C)C[C@@H]1NC(=O)[C@H](CC(C)C)NC(=O)[C@@H](CC(C)C)NC(=O)[C@H](C(C)C)NC(=O)[C@@H](Cc2cscn2)NC(=O)[C@H](Cc2cscn2)NC(=O)[C@H](CCC(=O)N2CCCC2)NC1=O | -1.19
CC(C)C[C@@H]1NC(=O)[C@H](CC(C)C)NC(=O)[C@H](CC(C)C)NC(=O)[C@@H](C)NC(=O)[C@H](C(C)C)NC(=O)[C@H](Cc2cscn2)NC(=O)[C@H](C)NC1=O | -2.14
CC(C)C[C@@H]1NC(=O)[C@H](Cc2cscn2)NC(=O)[C@H](CC(C)C)NC(=O)[C@@H](CCC(=O)N2CCCC2)NC(=O)[C@H](CC(C)C)NC(=O)[C@@H](CC(C)C)NC(=O)[C@H](CC(C)C)NC1=O | 0.0656
CC(C)C[C@@H]1NC(=O)[C@H](CC(C)C)NC(=O)[C@@H](CC(C)C)NC(=O)[C@H](CC(C)C)NC(=O)[C@@H](Cc2cscn2)NC(=O)[C@H](Cc2cscn2)NC(=O)[C@H](CCC(=O)N2CCCC2)NC1=O | -0.73

Series 4 — concentration: 1 µM
SMILES: COc1cccc(CNC(=O)c2nc3scc(COCc4ccc(C(=O)O)cc4)c3c(=O)[nH]2)c1
target | read-out | technique | remaining binding
LYN (Homo sapiens, UniProt P07948) | cell-free assay | competition with immobilised ligand | 93.7%
EPHA1 (Homo sapiens, UniProt P21709) | cell-free assay | competition with immobilised ligand | 79.9%
PAK1 (Homo sapiens, UniProt Q13153) | cell-free assay | competition with immobilised ligand | 100%
FLT3 (Homo sapiens, UniProt P36888) | cell-free assay | competition with immobilised ligand | 85%
MAPKAPK5 (Homo sapiens, UniProt Q8IW41) | cell-free assay | competition with immobilised ligand | 93.8%
VRK2 (Homo sapiens, UniProt Q86Y07) | cell-free assay | competition with immobilised ligand | 74.2%
CDK2 (Homo sapiens, UniProt P24941) | cell-free assay | competition with immobilised ligand | 100%
RET (Homo sapiens, UniProt P07949, M918T) | cell-free assay | competition with immobilised ligand | 89.5%
STK39 (Homo sapiens, UniProt Q9UEW8) | cell-free assay | competition with immobilised ligand | 100%
SIK1 (Homo sapiens, UniProt P57059) |  | competition binding | 100%
TNNI3K (Homo sapiens, UniProt Q59H18) | cell-free assay | competition with immobilised ligand | 95.5%
DDR2 (Homo sapiens, UniProt Q16832) | cell-free assay | competition with immobilised ligand | 98.9%
PRKX (Homo sapiens, UniProt P51817) | cell-free assay | competition with immobilised ligand | 100%
MAPKAPK2 (Homo sapiens, UniProt P49137) | cell-free assay | competition with immobilised ligand | 64.3%
DCLK2 (Homo sapiens, UniProt Q8N568) | cell-free assay | competition with immobilised ligand | 100%
Ribosomal protein S6 kinase alpha-3, C-terminal kinase domain (RPS6KA3, Homo sapiens, UniProt P51812) | cell-free assay | competition with immobilised ligand | 56.5%
KDR (Homo sapiens, UniProt P35968) | cell-free assay | competition with immobilised ligand | 70%
FLT1 (Homo sapiens, UniProt P17948) | cell-free assay | competition with immobilised ligand | 93.9%
CDK14 (Homo sapiens, UniProt O94921) | cell-free assay | competition with immobilised ligand | 100%
EIF2AK2 (Homo sapiens, UniProt P19525) | cell-free assay | competition with immobilised ligand | 97.7%
RIOK3 (Homo sapiens, UniProt O14730) | cell-free assay | competition with immobilised ligand | 63.2%
ALK (Homo sapiens, UniProt Q9UM73, C1156Y) | cell-free assay | competition with immobilised ligand | 100%
FLT3 (Homo sapiens, UniProt P36888, ITD) | cell-free assay | competition with immobilised ligand | 93.7%
FLT3 (Homo sapiens, UniProt P36888, K663Q) | cell-free assay | competition with immobilised ligand | 93%
IKBKE (Homo sapiens, UniProt Q14164) | cell-free assay | competition with immobilised ligand | 83.9%

Series 5 — read-out: enzyme activity; concentration: 5 µM
SMILES: O=C(Nc1cnn(-c2csc(C(=O)NC3COC3)c2)c1)Nc1ccccc1Cl
CSNK1A1L: Casein kinase I isoform alpha-like (CSNK1A1L, Homo sapiens, UniProt Q8N752)
Chain of UniProt Q8N752 (whole entry, looked up): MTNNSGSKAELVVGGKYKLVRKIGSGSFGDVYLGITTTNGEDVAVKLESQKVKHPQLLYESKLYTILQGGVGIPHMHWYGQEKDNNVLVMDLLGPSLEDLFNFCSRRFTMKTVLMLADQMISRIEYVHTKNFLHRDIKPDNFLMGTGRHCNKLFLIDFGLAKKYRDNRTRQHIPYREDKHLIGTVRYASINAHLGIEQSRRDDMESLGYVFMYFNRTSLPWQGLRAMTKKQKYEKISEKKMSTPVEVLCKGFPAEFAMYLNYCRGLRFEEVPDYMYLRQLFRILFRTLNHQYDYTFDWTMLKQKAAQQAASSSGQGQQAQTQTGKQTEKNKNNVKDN
target | mode | reference | remaining activity
TSSK1B (Homo sapiens, UniProt Q9BXA7) |  | untreated control | 97.5%
SRPK1 (Homo sapiens, UniProt Q96SB4) |  | untreated control | 94.4%
CSNK1A1L |  | untreated control | 106%
CSNK1A1L | inhibitor |  | 109%
TYRO3 (Homo sapiens, UniProt Q06418) |  | untreated control | 75.4%
MAPK13 (Homo sapiens, UniProt O15264) |  | untreated control | 120%
MAP3K21 (Homo sapiens, UniProt Q5TCX8) | inhibitor |  | 93.2%
MAP4K1 (Homo sapiens, UniProt Q92918) |  | untreated control | 127%
